Published values pooled from the literature.
Parts stem from different laboratories: compare values within a part only.

Study 1 — observed: enzyme activity; mode: inhibitor; tested at: 20 µM; setting: primary screen
Target: Replicase polyprotein 1ab, main protease (rep, Severe acute respiratory syndrome coronavirus 2, UniProt P0DTD1)
Compound	inhibition [%]
O=C1OC2(c3ccccc31)c1cc(Br)c(O)c(Br)c1Oc1c2cc(Br)c(O)c1Br	48
O=C(OC[C@H]1O[C@@H](OC(=O)c2cc(O)c(O)c(OC(=O)c3cc(O)c(O)c(O)c3)c2)[C@H](OC(=O)c2cc(O)c(O)c(OC(=O)c3cc(O)c(O)c(O)c3)c2)[C@@H](OC(=O)c2cc(O)c(O)c(OC(=O)c3cc(O)c(O)c(O)c3)c2)[C@@H]1OC(=O)c1cc(O)c(O)c(OC(=O)c2cc(O)c(O)c(O)c2)c1)c1cc(O)c(O)c(OC(=O)c2cc(O)c(O)c(O)c2)c1	79.8
COC(=O)[C@H](CCSC)NC(=O)c1ccc(NC[C@@H](N)CS)cc1-c1ccccc1	57.8

Study 2 — observed: helicase activity; organism: SARS-CoV-2; tested at: 20 µM
Target: Replicase polyprotein 1ab, nsp13 helicase (rep, Severe acute respiratory syndrome coronavirus 2, UniProt P0DTD1)
Structure (SMILES)	inhibition [%]
Cc1nc(C#Cc2ccnc(Cl)c2)c(C)n1-c1ccc(OC(F)(F)F)cc1	99.6
CCN(CC)C(=S)S	72.1
Nc1nnc(Sc2ncc([N+](=O)[O-])s2)s1	98.8
O=C(O)[C@@H](S)[C@@H](S)C(=O)O	99.9
O=C(/C=C/c1ccc2ccccc2n1)c1ccncc1	91.3
CCC(C)SSc1ncc[nH]1 (stereo not shown)	100
Cc1ccc(S(=O)(=O)/C=C/C#N)cc1	99.2
O=C1C=CC(=O)C2=C1C1c3ccccc3C2c2ccccc21	99.3

Study 3 — cell line: HEK-293T; observed: pseudovirus infection; method: FDA-approved drug library screen; organism: VSV pseudotyped with SARS-CoV-2 spike; tested at: 10 µM; time: 16 h; baseline: vehicle-treated
Structure (SMILES)	GFP-positive cells
CCCC(=O)Nc1ccc(OCC(O)CNC(C)C)c(C(C)=O)c1 (stereo not shown)	86.6%
O=C1C(CC[S+]([O-])c2ccccc2)C(=O)N(c2ccccc2)N1c1ccccc1 (stereo not shown)	105%
C[C@H]1c2cccc(O)c2C(=O)C2=C(O)[C@]3(O)C(=O)C(C(N)=O)=C(O)[C@@H](N(C)C)[C@@H]3[C@@H](O)[C@@H]21	89.8%
CN(C)c1nc(N(C)C)nc(N(C)C)n1	77.7%

Single results of other studies
Structure (SMILES)	system	setting	endpoint	result
CC[C@H](C)[C@H](NC(=O)[C@H](CC(C)C)NC(=O)[C@H](Cc1c[nH]c2ccccc12)NC(=O)[C@H](CCC(N)=O)NC(=O)[C@@H](NC(=O)[C@H](Cc1ccccc1)NC(=O)[C@H](C)NC(=O)[C@H](CCCCNC(=O)COCCOCCNC(=O)COCCOCCNC(=O)CC[C@H](NC(=O)CCCCCCCCCCCCCCCCCCC(=O)O)C(=O)O)NC(=O)[C@H](CCC(N)=O)NC(=O)[C@H](C)NC(=O)[C@@H](NC(=O)[C@H](CCCCN)NC(=O)[C@H](CC(=O)O)NC(=O)[C@H](CC(C)C)NC(=O)C(C)(C)NC(=O)[C@@H](NC(=O)[C@H](CO)NC(=O)[C@H](Cc1ccc(O)cc1)NC(=O)[C@H](CC(=O)O)NC(=O)[C@H](CO)NC(=O)[C@@H](NC(=O)[C@H](Cc1ccccc1)NC(=O)[C@@H](NC(=O)CNC(=O)[C@H](CCC(=O)O)NC(=O)C(C)(C)NC(=O)[C@@H](N)Cc1ccc(O)cc1)[C@@H](C)O)[C@@H](C)O)[C@@H](C)CC)[C@@H](C)CC)C(C)C)C(=O)N[C@@H](C)C(=O)NCC(=O)NCC(=O)N1CCC[C@H]1C(=O)N[C@@H](CO)C(=O)N[C@@H](CO)C(=O)NCC(=O)N[C@@H](C)C(=O)N1CCC[C@H]1C(=O)N1CCC[C@H]1C(=O)N1CCC[C@H]1C(=O)N[C@@H](CO)C(N)=O	healthy subjects, single ascending dose	0.5 mg, titre increase ≥4-fold	treatment-boosted ADA positive subjects	0%
